Results pooled from the literature.
A part holds a random share of what one study measured.

Sample 1 — method: protein-binding microarray; molecule type: double-stranded DNA, one strand shown; matrix: in vitro; concentration: not given; direction: higher = stronger binding
Target: Myc proto-oncogene protein, bHLH-zipper, MAX partner unstated (MYC, Homo sapiens, UniProt P01106, residues 368-449)
Sequence of UniProt P01106 (368-449, looked up): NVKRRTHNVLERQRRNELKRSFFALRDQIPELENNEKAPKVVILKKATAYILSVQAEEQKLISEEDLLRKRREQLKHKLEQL
Notes: k-mer, scored over probes, only values ≥0.25
| Sequence | E-score |
| --- | --- |
| ACGCCACG | 0.425 |
| GCACCTGC | 0.294 |
| AGCATGGC | 0.434 |
| CCACGCAC | 0.417 |
| CCTACCAC | 0.278 |
| AGCATGCA | 0.401 |
| CATGCCCC | 0.345 |
| AAACACGT | 0.389 |
| ACACGCAG | 0.306 |
| CAACATGG | 0.311 |
| AACCTCGC | 0.299 |
| AATGCGTG | 0.372 |
| CATCCACG | 0.355 |
| ATGTGTCA | 0.344 |
| AGGCGCAC | 0.289 |
| AACCACAT | 0.311 |
| CGCACCAC | 0.349 |
| CCACATGA | 0.422 |
| CCACCACC | 0.288 |
| ATACCATG | 0.311 |

Sample 2 — method: protein binding microarray; molecule type: double-stranded DNA, one strand shown; matrix: in vitro; concentration: not given; reference: not given; direction: higher = stronger binding
Target: Histone acetyltransferase KAT6A, winged helix 2, GST fusion (KAT6A, Homo sapiens, UniProt Q92794, residues 85-181)
Notes: 8-mer, flanks averaged, mean of 2 arrays, mostly near background
Target sequence (chain): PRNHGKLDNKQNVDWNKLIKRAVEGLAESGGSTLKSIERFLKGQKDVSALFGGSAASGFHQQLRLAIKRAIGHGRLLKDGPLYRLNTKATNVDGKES
| Sequence | E-score |
| --- | --- |
| CTTGATCA | 0.0286 |
| CCACATCC | -0.113 |
| GATGCTAA | 0.138 |
| CGGCTATA | -0.00546 |
| AATGGAGT | 0.0368 |
| GGAGGAAA | 0.143 |
| CTTACGCC | 0.156 |
| GTTACTGA | 0.0481 |
| ACATGAGT | -0.225 |
| CCAACACG | 0.0582 |
| CGTCCCGA | -0.0295 |
| AGCGAGGA | 0.0746 |
| GAGCGTAA | 0.0404 |
| CGATATCG | 0.115 |
| CCCTTCAG | -0.164 |
| AATTCGTC | 0.182 |
| CGACTTGC | -0.114 |
| AACGTAGC | -0.153 |
| CCAGACTC | -0.0453 |
| ACACTAAC | 0.0204 |
| CAGGGACG | 0.0034 |
| ACATTACG | -0.139 |
| CAGTAGAG | -0.0848 |
| ACGTGGCA | -0.168 |
| ATCATAAT | -0.00747 |

Sample 3 — method: universal PBM; molecule type: double-stranded DNA, one strand shown; matrix: in vitro; concentration: 600 nM; direction: higher = stronger binding
Target: Sal-like protein 4, full length isoform A (SALL4, Homo sapiens, UniProt Q9UJQ4, residues 1-1053)
Sequence of UniProt Q9UJQ4 (whole entry, looked up): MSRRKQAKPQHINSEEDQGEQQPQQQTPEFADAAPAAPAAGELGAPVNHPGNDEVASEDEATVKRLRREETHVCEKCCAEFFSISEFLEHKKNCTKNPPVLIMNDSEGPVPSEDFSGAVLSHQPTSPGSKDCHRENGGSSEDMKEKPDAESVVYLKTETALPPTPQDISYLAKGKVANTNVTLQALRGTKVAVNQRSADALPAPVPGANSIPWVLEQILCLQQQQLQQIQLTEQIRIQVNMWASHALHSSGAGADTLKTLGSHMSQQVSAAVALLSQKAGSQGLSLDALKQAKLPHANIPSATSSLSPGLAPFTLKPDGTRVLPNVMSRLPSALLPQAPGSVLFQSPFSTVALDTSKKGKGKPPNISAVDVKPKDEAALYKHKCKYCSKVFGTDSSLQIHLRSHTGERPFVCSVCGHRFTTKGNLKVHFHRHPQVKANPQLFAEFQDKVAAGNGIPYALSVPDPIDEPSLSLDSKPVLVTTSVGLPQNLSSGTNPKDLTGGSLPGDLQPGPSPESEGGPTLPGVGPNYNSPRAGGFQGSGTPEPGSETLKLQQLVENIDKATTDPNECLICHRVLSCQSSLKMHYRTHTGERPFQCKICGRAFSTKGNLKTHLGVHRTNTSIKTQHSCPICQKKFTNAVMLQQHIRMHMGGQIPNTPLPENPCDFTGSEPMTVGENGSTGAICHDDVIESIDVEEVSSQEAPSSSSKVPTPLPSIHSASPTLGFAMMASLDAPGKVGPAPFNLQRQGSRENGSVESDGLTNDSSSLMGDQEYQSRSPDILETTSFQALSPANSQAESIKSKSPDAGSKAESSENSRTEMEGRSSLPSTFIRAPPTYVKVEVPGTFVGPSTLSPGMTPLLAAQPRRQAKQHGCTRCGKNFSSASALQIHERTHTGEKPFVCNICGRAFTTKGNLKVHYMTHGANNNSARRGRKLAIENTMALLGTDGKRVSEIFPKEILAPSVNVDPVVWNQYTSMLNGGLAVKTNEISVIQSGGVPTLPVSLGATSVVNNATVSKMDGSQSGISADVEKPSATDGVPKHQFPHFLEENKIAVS
Notes: 8-mer, flanks averaged, mean of replicates
| Sequence | E-score |
| --- | --- |
| CTTGGTGA | -0.0328 |
| CAAGCGGG | -0.322 |
| TAGCTGCA | -0.126 |
| AACTGTAT | 0.329 |
| AGCCGGAT | -0.103 |
| CGAAGCTC | -0.295 |
| CTCAAAAA | 0.167 |
| TCATTACA | 0.29 |
| CCCATTGC | -0.0918 |
| GTGAGTTA | -0.0198 |
| GCATTGAC | 0.102 |
| CTTTACGA | 0.118 |
| CAGTGACC | -0.312 |
| AAGATCAT | 0.168 |
| TCCACGGA | 0.0794 |
| AGCATAAT | 0.328 |
| CAGATAGG | 0.00842 |
| CTTAAGGA | -0.0423 |
| AATTACGC | 0.165 |
| CCAGACGA | -0.224 |
| CGTAGTAC | 0.0187 |
| AACATGAG | 0.152 |

Sample 4 — method: aptamer microarray, sandwich; molecule type: DNA with 2'F-ANA; matrix: in vitro; concentration: 200 nM; together with: Cy3 exosite-II aptamer, 400 nM; direction: higher = stronger binding; sequence: GGTTGGTGTGGTTGG
Target: Prothrombin, mature alpha-thrombin (F2, Homo sapiens, UniProt P00734)
Notes: whole 15-mer aptamer, many near background
| Modification | mean fluorescence intensity [a.u.] |
| --- | --- |
| 2'F-ANA at 1 4 5 6 7 8 10 11 12 13 14 | 52.4 |
| 2'F-ANA at 1 2 10 11 14 | 54.5 |
| 2'F-ANA at 1 3 9 12 13 14 | 200 |
| 2'F-ANA at 2 3 4 10 12 14 15 | 194 |
| 2'F-ANA at 4 6 9 10 11 14 15 | 60.4 |
| 2'F-ANA at 3 5 6 9 10 12 13 15 | 55.3 |
| 2'F-ANA at 1 2 4 9 10 13 14 15 | 46.2 |
| 2'F-ANA at 3 4 5 7 8 9 12 14 | 144 |
| 2'F-ANA at 2 3 4 5 6 7 9 10 11 13 14 | 139 |
| 2'F-ANA at 2 4 6 7 8 12 14 15 | 147 |
| 2'F-ANA at 1 4 6 8 9 13 14 15 | 77 |
| 2'F-ANA at 1 4 5 6 8 9 12 13 14 15 | 46.7 |
| 2'F-ANA at 4 7 8 11 15 | 329 |
| 2'F-ANA at 1 2 10 11 12 13 15 | 67.8 |
| 2'F-ANA at 1 2 4 5 7 10 11 13 15 | 48.4 |
| 2'F-ANA at 2 5 14 15 | 46 |
| 2'F-ANA at 1 3 4 5 6 8 9 10 11 14 | 55.6 |
| 2'F-ANA at 2 5 7 9 11 12 13 14 15 | 47 |

Sample 5 — method: RNA Bind-n-Seq; molecule type: RNA; matrix: in vitro; concentration: not given; notes: RNA with constant flanks, ends assumed; reference: input RNA pool; direction: higher = stronger binding
Target: RING finger protein unkempt homolog, zinc fingers 1-6, GST-SBP tag (UNK, Homo sapiens, UniProt Q9C0B0, residues 30-357)
All sequences stand within: GGGAGUUCUACAGUCCGACGAUC … CAACAGAGGAUUGAGCAUCA
Construct (chain): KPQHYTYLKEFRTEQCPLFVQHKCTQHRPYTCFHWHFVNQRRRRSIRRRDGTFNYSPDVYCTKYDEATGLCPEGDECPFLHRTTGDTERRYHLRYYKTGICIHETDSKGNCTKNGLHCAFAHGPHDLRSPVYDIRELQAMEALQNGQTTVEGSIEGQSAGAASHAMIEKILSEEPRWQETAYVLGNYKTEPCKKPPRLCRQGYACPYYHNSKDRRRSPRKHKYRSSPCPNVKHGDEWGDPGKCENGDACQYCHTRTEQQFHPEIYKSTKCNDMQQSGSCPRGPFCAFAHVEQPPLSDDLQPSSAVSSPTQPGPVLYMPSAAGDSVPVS
| Sequence | bound/input enrichment |
| --- | --- |
| AACAGGACAGCCUGGUGCCCCAUUACACUCUGUAGGAGUUAUGCAAUUCAGAAGUGGAAUUCCGGAAAUCAUUUAUUUUGAUGUGUCAAUAGAGAGAUUUAUUGUCUGUAAAUUUGGAUG | 0.266 ratio |
| GUGGGAGAUUUGGUACUCAUCAUCCUAGACGAACGCCAUGACAAUUAUGUGUUAUUUACUGUCCGUCCUACUUUAUAUUUUCUACAUUCAGAGUCUCUACCUGCCCUGGAUCUCAAACCA | 0.458 ratio |
| GACUACCAGGCUGCUGGCGAUGAUGAGAUCUCCUUUGACCCUGAUGACAUCAUCACCAACACCGAAAUGAUUGACGAUGGCUGGUGGCGUGGGGUGUGCAAGGGCAGAUACGGGCUCUUC | 0.166 ratio |
| UAAUGUAAACUUUCCAGUGGAUUGUUACUUACACACCUGAUACUAAGAAUUAAGUAGAAGACCGAUUUUUAUGGACACUCUAGCUGUAUUGGAGCACUACUGGAUUUUAUAUUUCAGUCA | 0.26 ratio |
| AAAUAUGACUCAAGUGUGAGUGGUCAAUCAUCUUUUGUGACAUCCCCAGCAGCAGACAACACCGAAAUGCUUCCUCAUUAUGAGCCAAUUCCAUUCAGUUCUUCUAUGAAUGAAUCUGCU | 0.125 ratio |
| GUUAGCUGGGGUAAAAAGGUCCAGCCUAUAGACUCCAUAUUAGCAGACUGGAAUGAAGAUACCGAAGCAUUUGAAAUGAUGGAGAAGGAUGAGCUAUGACUUGCUAAACAAUCUGUUGGU | 0.54 ratio |
| AAAGAUCUACUGAGGCAAGGCAGCAAAUUUAGAAGAAAUGUAUCAACACUAUUAACCGAGUCCGGAUUCCAAAUUAAAAAAAAAACUAAAAGAUUGUAUAUCAACAAAGCCAAUAUCUGG | 3.37 ratio |
| ACCCGUGUAAACAUUAUUCCCCCCAGGAGAAAAUGGUGUUAUUCAAAUGAAUCAUAAUAAAACCGCCUCUAAACAGUUUCUAAGCGGGAGCCUCCGUGGAACUCAGCGCUCCGCUCCUCC | 0.535 ratio |
| AUGAGAGCUCCAAAACACUUUCUUCCUGAGAUGCUAAGCAAAGUGAUCAUCCUGUCACUUGACCGAAGUGAUGAAGAUAAAGAAAAAGCAAGCUCUUUAAUCAGUUUACUCAAACAGGAA | 0.0728 ratio |
| UCUGUCACUCCUCUUAUCUGAGAAGUGACCUUUUAUUUUUAAGAUGACUACAGACCUAUUUUCCGAUAUGUUUUCAGUACAAUUUUGAACAGCAACUUUUUAAUUAAACAUCUUCCAGUG | 0.623 ratio |
| UCGAGCCGAUAACAGGGUUCGGGUGUCUGGUGUGUGACCAUCACAGGGUUUGUGGAUGCACUCCGAUGUUUGCAAUGAGCACUGUGGCUGGCAUGCCCCAGUAUUUUGGAUACCAAUGCA | 0.147 ratio |

Sample 6 — method: protein-binding microarray; molecule type: double-stranded DNA, one strand shown; matrix: in vitro; concentration: 250 nM; notes: 60-bp whole probe; together with: salmon DNA 0.4 mg/ml; reference: random background probes; direction: higher = stronger binding; all sequences stand within: GCCTAGCAC … GTCTTGATTCGCTTGACGCTGCTG
Target: Interferon regulatory factor 7, full length, phosphomimetic (IRF7, Homo sapiens, UniProt Q92985, residues 1-503, S101K/S471D/S472D/S475D/S476D/S477D/S483D/S484D/S487D)
Sequence of UniProt Q92985 (whole entry, unmodified, looked up): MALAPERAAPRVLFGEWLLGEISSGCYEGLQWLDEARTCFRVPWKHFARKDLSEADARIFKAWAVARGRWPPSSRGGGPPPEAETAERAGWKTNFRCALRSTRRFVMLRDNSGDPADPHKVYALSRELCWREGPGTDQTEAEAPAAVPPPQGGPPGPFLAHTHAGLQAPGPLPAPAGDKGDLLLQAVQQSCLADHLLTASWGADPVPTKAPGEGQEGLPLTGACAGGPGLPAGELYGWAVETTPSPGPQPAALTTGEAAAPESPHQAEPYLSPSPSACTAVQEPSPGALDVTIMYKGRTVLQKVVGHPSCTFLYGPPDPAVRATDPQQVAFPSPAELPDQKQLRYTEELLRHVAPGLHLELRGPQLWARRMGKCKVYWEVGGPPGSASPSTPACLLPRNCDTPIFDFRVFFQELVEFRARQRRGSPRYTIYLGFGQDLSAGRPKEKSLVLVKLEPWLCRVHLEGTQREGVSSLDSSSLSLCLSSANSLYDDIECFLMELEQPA
| Sequence | log fluorescence |
| --- | --- |
| GACGGCCTGCTTATCCTGACGTGCTAG | -0.431 z-score |
| GACGAACTGGGGGATCGAGACGTGCTA | 0.153 z-score |
| GACGGTATCCTACTGCGGACGTGCTAG | -0.309 z-score |
| CTAATTAGAATTTTCATTAAGTGCTAG | 1.92 z-score |
| GACGATATCGGTCTCGGGACGTGCTAG | 0.274 z-score |
| GACGGTTTCGGTATCCGGACGTGCTAG | 11.6 z-score |
| GACGAACTGGTGACTGGAGACGTGCTA | -0.594 z-score |
| TGAGGTATCCTACTGCTTTAGTGCTAG | -0.515 z-score |
| TCAGTTCTAAATATCTTACTGTGCTAG | 0.845 z-score |
| TTAAGTTTCCTTTTCCTTTAGTGCTAG | 8.22 z-score |
| ATAGGTTTCCTACTGCTTTAGTGCTAG | 1.12 z-score |
| GACGATTACGGGTATCGAGACGTGCTA | -0.292 z-score |
| TAATTTTCATTTTCCAAATGGTGCTAG | 3.5 z-score |
| TTAGGACTGCTTGTCCTTTAGTGCTAG | -0.116 z-score |
| TTAGGTTTTGGACTGGGTTAGTGCTAG | 0.239 z-score |
| TTAGGTTCCGGTTTCGGTAAGTGCTAG | 8.63 z-score |
| TTAGGACTGGGGACTGGGATAGTGCTA | -0.728 z-score |

A few entries again (sample 6):
| Sequence | log fluorescence |
| --- | --- |
| GACGAACTGGTGACTGGAGACGTGCTA | -0.594 z-score |
| GACGGTATCCTACTGCGGACGTGCTAG | -0.309 z-score |
| TTAGGTTCCGGTTTCGGTAAGTGCTAG | 8.63 z-score |
| TTAGGTTTTGGACTGGGTTAGTGCTAG | 0.239 z-score |
| GACGGTTTCGGTATCCGGACGTGCTAG | 11.6 z-score |
| CTAATTAGAATTTTCATTAAGTGCTAG | 1.92 z-score |
| TTAGGACTGGGGACTGGGATAGTGCTA | -0.728 z-score |
| GACGATTACGGGTATCGAGACGTGCTA | -0.292 z-score |
| GACGAACTGGGGGATCGAGACGTGCTA | 0.153 z-score |
| GACGGCCTGCTTATCCTGACGTGCTAG | -0.431 z-score |
| TAATTTTCATTTTCCAAATGGTGCTAG | 3.5 z-score |
| TTAAGTTTCCTTTTCCTTTAGTGCTAG | 8.22 z-score |
| TCAGTTCTAAATATCTTACTGTGCTAG | 0.845 z-score |
| TTAGGACTGCTTGTCCTTTAGTGCTAG | -0.116 z-score |
| GACGATATCGGTCTCGGGACGTGCTAG | 0.274 z-score |
| TGAGGTATCCTACTGCTTTAGTGCTAG | -0.515 z-score |
| ATAGGTTTCCTACTGCTTTAGTGCTAG | 1.12 z-score |
